Published values pooled from the literature.
Compare with care: the assays were run in different laboratories. ± gives the spread as reported. Converted amounts (≈) assume the structure as drawn.
UniProt Q7TMS5, sequence (whole entry, looked up): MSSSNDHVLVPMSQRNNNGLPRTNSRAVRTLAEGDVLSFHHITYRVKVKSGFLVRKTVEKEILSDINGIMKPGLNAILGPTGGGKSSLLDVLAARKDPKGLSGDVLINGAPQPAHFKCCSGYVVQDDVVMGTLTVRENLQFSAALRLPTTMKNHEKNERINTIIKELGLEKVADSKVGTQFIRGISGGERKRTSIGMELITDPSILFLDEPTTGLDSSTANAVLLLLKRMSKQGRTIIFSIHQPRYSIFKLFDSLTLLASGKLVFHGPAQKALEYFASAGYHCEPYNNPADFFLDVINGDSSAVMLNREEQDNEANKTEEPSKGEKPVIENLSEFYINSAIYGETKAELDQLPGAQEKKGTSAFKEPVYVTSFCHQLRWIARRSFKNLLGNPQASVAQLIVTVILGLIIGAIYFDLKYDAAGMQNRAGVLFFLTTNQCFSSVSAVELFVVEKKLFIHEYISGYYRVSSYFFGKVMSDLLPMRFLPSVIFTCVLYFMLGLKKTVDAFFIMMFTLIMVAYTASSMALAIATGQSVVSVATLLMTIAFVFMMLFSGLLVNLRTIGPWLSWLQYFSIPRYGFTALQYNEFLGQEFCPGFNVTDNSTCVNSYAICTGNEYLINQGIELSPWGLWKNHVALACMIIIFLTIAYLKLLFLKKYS
UniProt O75469, sequence (whole entry, looked up): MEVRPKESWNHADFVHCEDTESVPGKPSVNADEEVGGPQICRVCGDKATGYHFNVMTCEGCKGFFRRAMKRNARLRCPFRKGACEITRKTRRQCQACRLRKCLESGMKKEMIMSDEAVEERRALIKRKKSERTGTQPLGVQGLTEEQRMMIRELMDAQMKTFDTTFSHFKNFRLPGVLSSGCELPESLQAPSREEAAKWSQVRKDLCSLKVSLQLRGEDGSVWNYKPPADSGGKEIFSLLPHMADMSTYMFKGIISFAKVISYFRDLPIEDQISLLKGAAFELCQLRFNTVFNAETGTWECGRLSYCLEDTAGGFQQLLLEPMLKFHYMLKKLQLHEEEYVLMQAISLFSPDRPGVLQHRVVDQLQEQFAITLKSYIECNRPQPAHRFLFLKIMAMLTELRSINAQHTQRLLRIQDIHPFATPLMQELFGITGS

| SMILES | tested on | test | test system | conditions | scale | endpoint | value |
| --- | --- | --- | --- | --- | --- | --- | --- |
| O=C(/C=C/C=C/c1ccc2c(c1)OCO2)N1CCCCC1 | NR1I2 (Homo sapiens, UniProt O75469) | MDR1 promoter reporter, activator, luciferase reporter | HepG2, PXR-transfected | 24 h, 1% charcoal-stripped FBS | – | EC50 | 2550 nM |
| Cc1cc(O)c(=O)c(O)cc1C(=O)N1CCC2(CC1)C1CC3CC(C1)CC2C3 | herpes simplex virus 1 | viral replication | Vero | – | baseline: CC50 over EC50 | selectivity index | 80 |
| Cc1cc(Nc2cc3ncccc3c(N[C@@H]3C[C@H]4CC[C@@H](C3)N4CCC#N)n2)n[nH]1 | – | – | beagle dog, male, plasma | oral, 100 mg/kg/day, last day of 13 weeks | – | Cmax | 522 ng/mL |
| CO[C@H]1C[C@@H]2CC[C@@H](C)[C@@](O)(O2)C(=O)C(=O)N2CCCC[C@H]2C(=O)O[C@H]([C@H](C)C[C@@H]2CC[C@@H](O)[C@H](OC)C2)CC(=O)[C@H](C)/C=C(\C)[C@@H](O)[C@@H](OC)C(=O)[C@H](C)C[C@H](C)/C=C/C=C/C=C/1C | – | – | human, whole blood | oral, 30 mg, compound alone | – | Cmax | 43.5 ng/mL |
| CCCCCCCCCCCCCCCCCCOP(=O)([O-])OC1CC[N+](C)(C)CC1 | – | – | rhesus monkey, male, plasma | oral, 7 mg/kg, single dose | – | Cmax | 7100 ng/mL |
| C=CC(N)CCC(=O)O (centres unmarked) | – | – | male Sprague-Dawley rat, plasma | oral, 1.0 mg/kg, formulation 1 | – | Cmax | 1400 ± 124 ng/mL |
| Cc1nc2cccc(OCC(C)(C)C(=O)NC(C)C)c2c(N)c1C(=O)O | – | – | Sprague-Dawley rat both sexes, plasma | dietary, 100 mg/kg/day, day 7 | – | Cmax | 114 ng/mL |
| CCN1CCN(c2ccc(Nc3cc(N(C)C(=O)Nc4c(Cl)c(OC)cc(OC)c4Cl)ncn3)cc2)CC1 | – | LC-MS/MS | juvenile male Crl:WI(Han) rats, plasma | oral gavage, 1.0 mg/kg/day, postnatal day 17 | – | Cmax | 34.1 ng/mL |
| CCOC(=O)c1c(N)csc1-c1cn(-c2ccccc2)nc1-c1ccc(C)cc1 | Acinetobacter baumannii | broth microdilution | clinical urinary isolate | compound gamma-irradiated 15 kGy | – | MIC | 0.124 ± 0.3 µg/mL (≈ 0.307 µM) |
| Cc1cc(O)c(=O)c(O)cc1C(=O)Nc1ccc2ccc3cccc4ccc1c2c34 | herpes simplex virus 1 | viral replication | Vero | – | baseline: CC50 over EC50 | selectivity index | 304 |
| C=CC(=O)N1CCC(CNc2ncnc(N)c2-c2ccc(Oc3ccccc3)cc2)CC1 | – | – | cynomolgus monkey, male | oral, 10 mg/kg | – | Cmax | 3.2 ng/mL |
| CNC(=O)c1ccc(-c2cnc3ncc(Cc4ccc5ncccc5c4)n3n2)cc1F | – | – | human moderate hepatic impairment | oral, 200 mg single dose, adjusted geometric mean | – | Cmax | 1440 ng/mL |
| CC(C)NC[C@@H](C(=O)N1CCN(c2ncnc3c2[C@H](C)C[C@H]3O)CC1)c1ccc(Cl)cc1 | – | – | human, hepatic impairment Severe (Child-Pugh), plasma | oral, 100 mg single, geometric mean | – | Cmax | 80 ng/mL |
| COc1ccc(/C=C2/C(=O)c3ccccc3C2N2CCOCC2)cc1 (centres unmarked) | Danio rerio embryo | – | – | concentration not given, 24 h | – | developmental toxicity | toxic |
| O=c1[nH]c(=O)c(Cc2cccc(C(F)(F)F)c2)c([C@H]2CC[C@H](c3ccccc3)CC2)[nH]1 | – | – | human, plasma | oral, 150 mg once daily, day 1, SDD suspension, fasted, geometric mean | – | Cmax | 100 ng/mL |
| CC1=C2C[C@H]3[C@@H](CC[C@@H]4C[C@H](NS(C)(=O)=O)CC[C@@]43C)[C@@H]2CC[C@@]2(C1)O[C@@H]1C[C@H](C)CN[C@H]1[C@H]2C | – | – | patients, plasma | oral, 210 mg daily, day 22, cycle 1 | – | Cmax | 595 ng/mL |
| CC(C)=CCC[C@](C)(O[C@@H]1O[C@H](CO)[C@@H](O)[C@H](O)[C@H]1O)[C@H]1CC[C@]2(C)[C@@H]1[C@H](O)C[C@@H]1[C@@]3(C)CC[C@H](O[C@@H]4O[C@H](CO)[C@@H](O)[C@H](O)[C@H]4O[C@@H]4O[C@H](CO)[C@@H](O)[C@H](O)[C@H]4O)C(C)(C)[C@@H]3CC[C@]12C | – | – | Sprague-Dawley rat, plasma | oral, 200 mg/kg ginseng extract, control diet 2 weeks before dosing | – | Cmax | 690 ± 473 ng/mL |
| CC(C)[C@H](NC(=O)[C@@H]1CCCN1C(=O)[C@H](CCCNC(=N)N)NC(=O)[C@H](CS)NC(=O)[C@H](Cc1c[nH]c2ccccc12)NC(=O)[C@H](CCCNC(=N)N)NC(=O)[C@@H](Cc1ccccc1)NC(=O)[C@H](Cc1c[nH]cn1)NC(=O)[C@H](CCC(=O)O)NC(=O)[C@H](CS)NC(=O)[C@H](CS)NC(=O)[C@H](CCCCN)NC(=O)[C@@H]1CC(=O)N[C@@H](CCCNC(=N)N)C(=O)N[C@@H](C)C(=O)N[C@@H](CC(=O)O)C(=O)N[C@H](Cc2ccc(O)cc2)C(=O)N1)C(N)=O [technetium-99m labelled] | – | – | C57 mice, liver | intravenous, 0.037 MBq, 24 h | – | tissue uptake | 1.25 ± 0.2 %ID/g |
| CCCC[C@H](NC(C)=O)C(=O)N[C@H]1CCC(=O)NC[C@@H](C(=O)N[C@@H](Cc2c[nH]c3ccccc23)C(N)=O)NC(=O)[C@H](CCCNC(=N)N)NC(=O)[C@@H](Cc2ccccc2)NC(=O)[C@H](Cc2c[nH]cn2)NC1=O | – | – | beagle dog, male, plasma | subcutaneous, 8.0 mg/kg daily, day 1 | – | Cmax | 400 ng/mL |
| CS(=O)(=O)c1ccc(-c2cnc(N)c(-c3ccc(C(F)(F)F)nc3)c2)cc1 | – | – | Sprague-Dawley rat, pregnant female, plasma | oral, 30 mg/kg/day, gestation day 17 | – | Cmax | 8610 ng/mL |
| Cc1cc(C(=O)NC(C)(C)COc2cccc3c2C(N)=NS(=O)(=O)N3)cc(C)n1 | – | – | Sprague-Dawley rat, both sexes, plasma | oral, diet, 70 mg/kg/day, day 91, combined sexes mean | – | Cmax | 77.6 nM |
| O=C(CCCCCCC(=O)Nc1ccccc1)NO | – | – | cancer patients, serum | oral, 400 mg, cycle 1 day 2, together with: flavopiridol 30 to 30 mg/m^2 | – | Cmax | 3480 nM |
| Cc1ccc(Nc2nccc(N(C)c3ccc4c(C)n(C)nc4c3)n2)cc1S(N)(=O)=O | Broad substrate specificity ATP-binding cassette transporter ABCG2 (Mus musculus, UniProt Q7TMS5) | bidirectional transport | MDCK-Bcrp1 (murine Bcrp1) | 5 µM, 240 min, together with: canertinib | – | Papp B-A | 5.36 ± 0.05 ×10⁻⁶ cm/s |

For quick reference, copied from above:
| SMILES | tested on | test | test system | conditions | scale | endpoint | value |
| --- | --- | --- | --- | --- | --- | --- | --- |
| CCN1CCN(c2ccc(Nc3cc(N(C)C(=O)Nc4c(Cl)c(OC)cc(OC)c4Cl)ncn3)cc2)CC1 | – | LC-MS/MS | juvenile male Crl:WI(Han) rats, plasma | oral gavage, 1.0 mg/kg/day, postnatal day 17 | – | Cmax | 34.1 ng/mL |
| C=CC(=O)N1CCC(CNc2ncnc(N)c2-c2ccc(Oc3ccccc3)cc2)CC1 | – | – | cynomolgus monkey, male | oral, 10 mg/kg | – | Cmax | 3.2 ng/mL |
